Results gathered from unrelated publications.
Protocols differ between the studies behind these lines. ± marks the error that the study gave.
CYP2C9: Cytochrome P450 2C9 (CYP2C9, Homo sapiens, UniProt P11712)
Chain of UniProt P11712 (whole entry, looked up): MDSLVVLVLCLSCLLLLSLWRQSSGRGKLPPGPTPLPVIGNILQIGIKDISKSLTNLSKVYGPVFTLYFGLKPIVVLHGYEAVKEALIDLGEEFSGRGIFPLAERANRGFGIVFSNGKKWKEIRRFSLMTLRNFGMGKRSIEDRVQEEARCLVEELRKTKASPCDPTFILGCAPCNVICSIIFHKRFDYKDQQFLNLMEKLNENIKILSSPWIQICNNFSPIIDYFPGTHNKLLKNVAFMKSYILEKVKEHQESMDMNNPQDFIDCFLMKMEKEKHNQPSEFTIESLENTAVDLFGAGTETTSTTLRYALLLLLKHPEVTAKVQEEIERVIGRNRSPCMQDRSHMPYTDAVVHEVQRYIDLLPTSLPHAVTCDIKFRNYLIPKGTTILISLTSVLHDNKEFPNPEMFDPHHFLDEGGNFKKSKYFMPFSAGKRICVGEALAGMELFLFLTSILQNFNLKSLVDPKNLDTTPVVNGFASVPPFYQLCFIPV
CYP2A6: Cytochrome P450 2A6 (CYP2A6, Homo sapiens, UniProt P11509)
Chain of UniProt P11509 (whole entry, looked up): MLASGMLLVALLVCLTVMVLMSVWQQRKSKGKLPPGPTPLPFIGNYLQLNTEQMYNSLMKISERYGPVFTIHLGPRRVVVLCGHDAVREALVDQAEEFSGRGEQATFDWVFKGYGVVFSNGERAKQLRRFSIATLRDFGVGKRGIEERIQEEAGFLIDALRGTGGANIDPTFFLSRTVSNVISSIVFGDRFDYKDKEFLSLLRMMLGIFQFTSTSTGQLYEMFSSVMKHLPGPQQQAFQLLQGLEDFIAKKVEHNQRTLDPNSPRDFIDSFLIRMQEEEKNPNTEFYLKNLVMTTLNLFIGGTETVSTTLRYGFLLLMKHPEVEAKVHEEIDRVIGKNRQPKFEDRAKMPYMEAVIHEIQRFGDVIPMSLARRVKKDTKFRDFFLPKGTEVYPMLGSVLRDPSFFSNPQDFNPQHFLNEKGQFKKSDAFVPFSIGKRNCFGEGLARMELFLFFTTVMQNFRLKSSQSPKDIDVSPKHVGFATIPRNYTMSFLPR
AHR: Aryl hydrocarbon receptor (AHR, Delphinapterus leucas, UniProt Q95LD9)
Chain of UniProt Q95LD9 (whole entry, looked up): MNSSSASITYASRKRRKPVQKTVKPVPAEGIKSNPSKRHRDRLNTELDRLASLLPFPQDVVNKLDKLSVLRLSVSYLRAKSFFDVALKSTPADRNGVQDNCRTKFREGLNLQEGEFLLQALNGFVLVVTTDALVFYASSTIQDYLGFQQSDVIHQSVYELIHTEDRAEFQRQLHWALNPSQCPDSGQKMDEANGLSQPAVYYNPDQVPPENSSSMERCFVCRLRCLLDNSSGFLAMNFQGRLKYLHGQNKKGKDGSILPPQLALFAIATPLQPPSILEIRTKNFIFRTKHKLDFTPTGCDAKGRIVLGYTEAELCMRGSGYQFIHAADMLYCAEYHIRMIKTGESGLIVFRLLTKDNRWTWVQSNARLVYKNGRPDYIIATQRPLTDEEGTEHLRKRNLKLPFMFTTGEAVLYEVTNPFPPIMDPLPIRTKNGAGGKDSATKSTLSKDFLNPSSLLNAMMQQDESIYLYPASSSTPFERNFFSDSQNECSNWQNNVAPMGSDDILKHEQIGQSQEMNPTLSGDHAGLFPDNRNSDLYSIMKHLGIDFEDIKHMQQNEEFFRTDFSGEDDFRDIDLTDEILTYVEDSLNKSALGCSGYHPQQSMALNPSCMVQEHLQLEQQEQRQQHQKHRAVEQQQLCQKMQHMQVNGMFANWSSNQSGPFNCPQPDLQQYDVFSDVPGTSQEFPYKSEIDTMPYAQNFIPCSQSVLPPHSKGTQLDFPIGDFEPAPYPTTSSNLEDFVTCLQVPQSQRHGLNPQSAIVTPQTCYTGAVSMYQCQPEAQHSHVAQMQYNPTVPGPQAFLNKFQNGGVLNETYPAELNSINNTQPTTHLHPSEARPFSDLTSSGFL
CYP2E1: CYP2E1 (Oryctolagus cuniculus, UniProt P08682)
Chain of UniProt P08682 (whole entry, looked up): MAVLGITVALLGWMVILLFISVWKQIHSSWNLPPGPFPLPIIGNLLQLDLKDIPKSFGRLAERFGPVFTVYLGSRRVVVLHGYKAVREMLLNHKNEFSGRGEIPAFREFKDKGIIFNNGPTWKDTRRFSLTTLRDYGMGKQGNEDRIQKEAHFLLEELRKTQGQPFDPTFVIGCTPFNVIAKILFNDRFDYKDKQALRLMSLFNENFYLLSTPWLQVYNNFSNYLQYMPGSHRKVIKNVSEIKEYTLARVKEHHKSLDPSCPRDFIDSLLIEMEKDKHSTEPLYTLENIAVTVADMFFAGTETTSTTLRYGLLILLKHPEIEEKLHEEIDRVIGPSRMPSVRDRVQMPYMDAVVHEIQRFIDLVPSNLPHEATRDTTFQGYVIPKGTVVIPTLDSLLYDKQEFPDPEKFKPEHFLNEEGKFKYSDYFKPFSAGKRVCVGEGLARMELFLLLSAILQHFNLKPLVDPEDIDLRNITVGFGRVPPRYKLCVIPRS
NR1I2: Nuclear receptor subfamily 1 group I member 2 (NR1I2, Homo sapiens, UniProt O75469)
Chain of UniProt O75469 (whole entry, looked up): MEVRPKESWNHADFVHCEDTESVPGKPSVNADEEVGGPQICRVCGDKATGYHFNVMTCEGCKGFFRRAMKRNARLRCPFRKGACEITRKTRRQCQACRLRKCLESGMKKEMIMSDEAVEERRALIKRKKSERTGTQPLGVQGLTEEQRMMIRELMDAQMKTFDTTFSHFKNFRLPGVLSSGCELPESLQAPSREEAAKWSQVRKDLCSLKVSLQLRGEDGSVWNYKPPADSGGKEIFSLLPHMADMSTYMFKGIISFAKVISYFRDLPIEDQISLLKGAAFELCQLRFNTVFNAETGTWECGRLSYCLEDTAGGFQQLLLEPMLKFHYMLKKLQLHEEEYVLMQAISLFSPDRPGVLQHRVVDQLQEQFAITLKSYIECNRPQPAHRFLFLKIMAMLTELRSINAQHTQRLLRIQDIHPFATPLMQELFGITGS
Cytochrome P450 2A13: Cytochrome P450 2A13 (Homo sapiens, UniProt Q16696)
Chain of UniProt Q16696 (whole entry, looked up): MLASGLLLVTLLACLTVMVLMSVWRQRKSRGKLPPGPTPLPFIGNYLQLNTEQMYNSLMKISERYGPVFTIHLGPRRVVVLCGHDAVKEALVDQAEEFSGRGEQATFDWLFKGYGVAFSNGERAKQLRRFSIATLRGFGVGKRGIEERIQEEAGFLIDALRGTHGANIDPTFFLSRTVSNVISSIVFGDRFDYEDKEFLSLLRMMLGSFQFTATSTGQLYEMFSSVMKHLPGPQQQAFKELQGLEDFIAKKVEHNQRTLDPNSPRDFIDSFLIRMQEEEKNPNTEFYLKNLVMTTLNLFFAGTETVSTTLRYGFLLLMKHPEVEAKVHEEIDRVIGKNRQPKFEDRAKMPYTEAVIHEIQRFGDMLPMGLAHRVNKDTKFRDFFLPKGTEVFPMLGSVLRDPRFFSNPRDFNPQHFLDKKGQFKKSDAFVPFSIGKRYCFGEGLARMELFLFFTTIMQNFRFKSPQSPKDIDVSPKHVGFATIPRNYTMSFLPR
Chain of UniProt P14780 (whole entry, looked up): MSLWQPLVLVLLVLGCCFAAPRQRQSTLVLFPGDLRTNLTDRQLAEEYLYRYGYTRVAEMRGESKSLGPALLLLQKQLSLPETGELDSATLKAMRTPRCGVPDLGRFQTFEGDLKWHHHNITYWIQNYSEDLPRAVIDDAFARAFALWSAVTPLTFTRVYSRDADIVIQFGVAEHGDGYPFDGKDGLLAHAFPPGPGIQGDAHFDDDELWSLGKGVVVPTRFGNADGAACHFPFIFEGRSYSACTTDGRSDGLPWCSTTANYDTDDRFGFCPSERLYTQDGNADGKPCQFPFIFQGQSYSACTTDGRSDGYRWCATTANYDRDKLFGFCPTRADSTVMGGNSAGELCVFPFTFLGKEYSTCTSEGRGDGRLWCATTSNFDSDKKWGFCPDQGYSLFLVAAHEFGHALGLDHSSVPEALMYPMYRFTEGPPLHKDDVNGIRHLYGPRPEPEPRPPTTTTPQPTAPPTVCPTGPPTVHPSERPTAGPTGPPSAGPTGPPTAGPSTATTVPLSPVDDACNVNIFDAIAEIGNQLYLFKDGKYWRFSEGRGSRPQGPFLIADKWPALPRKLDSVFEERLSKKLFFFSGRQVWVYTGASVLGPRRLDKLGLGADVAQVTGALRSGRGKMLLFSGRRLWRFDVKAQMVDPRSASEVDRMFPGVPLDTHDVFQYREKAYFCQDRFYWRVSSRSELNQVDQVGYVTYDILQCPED
Chain of UniProt P07288 (whole entry, looked up): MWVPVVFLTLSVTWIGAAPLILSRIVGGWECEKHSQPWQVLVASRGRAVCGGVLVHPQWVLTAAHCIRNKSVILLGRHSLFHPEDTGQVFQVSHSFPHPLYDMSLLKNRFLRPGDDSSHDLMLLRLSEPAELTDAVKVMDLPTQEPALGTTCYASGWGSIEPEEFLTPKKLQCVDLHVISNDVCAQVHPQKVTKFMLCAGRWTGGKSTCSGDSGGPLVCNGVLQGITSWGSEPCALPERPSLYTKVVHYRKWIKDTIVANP
Chain of UniProt Q9NPD5 (whole entry, looked up): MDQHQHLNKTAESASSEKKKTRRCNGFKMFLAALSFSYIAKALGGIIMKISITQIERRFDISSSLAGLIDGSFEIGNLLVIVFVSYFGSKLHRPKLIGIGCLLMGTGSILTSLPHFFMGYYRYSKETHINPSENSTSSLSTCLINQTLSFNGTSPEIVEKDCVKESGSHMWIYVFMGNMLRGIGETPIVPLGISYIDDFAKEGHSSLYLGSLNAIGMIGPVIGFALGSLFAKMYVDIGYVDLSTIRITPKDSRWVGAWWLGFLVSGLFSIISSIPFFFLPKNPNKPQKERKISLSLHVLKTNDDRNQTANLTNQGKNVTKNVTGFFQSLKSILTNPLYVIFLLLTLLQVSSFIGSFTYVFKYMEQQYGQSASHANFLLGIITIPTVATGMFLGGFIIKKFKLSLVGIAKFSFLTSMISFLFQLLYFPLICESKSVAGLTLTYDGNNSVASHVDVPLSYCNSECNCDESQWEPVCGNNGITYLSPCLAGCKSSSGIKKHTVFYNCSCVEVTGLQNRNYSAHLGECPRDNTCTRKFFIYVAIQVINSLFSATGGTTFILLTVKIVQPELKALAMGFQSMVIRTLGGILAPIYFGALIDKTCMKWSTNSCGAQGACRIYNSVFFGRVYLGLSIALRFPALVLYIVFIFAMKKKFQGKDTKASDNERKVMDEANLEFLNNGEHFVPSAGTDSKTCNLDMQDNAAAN

Molecule	target	test	system	conditions	scale	endpoint	result
N#Cc1ccnc(N2C(=O)CC[C@H]2C(=O)N(c2cncc(F)c2)[C@H](C(=O)NC2CC(F)(F)C2)c2ccccc2Cl)c1	Solute carrier family 22 member 6 (SLC22A6, Homo sapiens, UniProt Q4U2R8)	p-aminohippurate uptake, inhibitor	HEK293 transfected with SLC22A6	up to 65 µM, 1 min, with: [3H]-p-aminohippurate	–	inhibition	< 50%
CC(=O)CC(c1ccc(O)cc1)c1c(O)c2ccccc2oc1=O (stereo not shown)	CYP2C9	enzyme activity, inhibitor	–	pH 7.4	–	Ki	17 µM
indolo[3,2-b]carbazole	Aryl hydrocarbon receptor (Ahr, Rattus norvegicus, UniProt P41738)	reporter gene, activator	H4L7.5c2 (rat)	6 h	–	EC50	9 pM
OCCCCc1ccc2ccc3cccc4ccc1c2c34	Cytochrome P450 3A4 (CYP3A4, Homo sapiens, UniProt P08684, F304W)	FRET titration by dilution	–	pH 7.4, F304W mutant, excess substrate, enzyme:substrate 1:6, with: HPCD 0.6 mg/mL	–	Kd	5.4 ± 0.5 µM
C#CCOCc1ccccc1-c1ccccc1	CYP2A6	binding, absorbance	–	pH 7.4	–	Kd	17 µM
Clc1ccc(-c2cc(Cl)c(Cl)c(Cl)c2)cc1	AHR	binding, competitor	–	in vitro expressed receptor, with: [3H]TCDD	–	Ki	0.019 µM
Nc1ccncc1[18F]	Cytochrome P450 2E1 (Cyp2e1, Mus musculus, UniProt Q05421)	–	awake mice, brain	intravenous, 35 min, sesame oil vehicle pretreatment	–	parent fraction	71.3 ± 5.2%
CC(=O)CC(c1ccccc1)c1c(O)c2cccc(O)c2oc1=O (stereo not shown)	UDP-glucuronosyltransferase 1A9 (UGT1A9, Homo sapiens, UniProt O60656)	substrate	–	pH 7.4, 37 °C	–	Km	369 µM
CC(=O)CC(c1ccccc1)c1c(O)c2cccc(O)c2oc1=O (stereo not shown)	CYP2C9	enzyme activity, inhibitor	human, liver microsomes	–	–	Ki	13 µM
Oc1ccc(/C=C/c2cc(O)cc(O)c2)cc1	UGT1A9 human recombinant	substrate, item: 3-glucuronide	–	pH 7.4	–	Km	28.9 ± 3.3 µM
C[C@@H]1CC[C@]2(C(=O)O)CC[C@]3(C)C(=CC[C@@H]4[C@@]5(C)CC[C@H](O)[C@@](C)(CO)[C@@H]5CC[C@]43C)[C@@H]2[C@]1(C)O	CYP3A4/5	midazolam 1'-hydroxylation, inhibitor, probe cocktail incubation	pooled human liver microsomes	10 µM, 20 min, with: midazolam 1.535 µM	–	remaining activity	88.2%
c1cn[nH]c1	CYP2E1	spectral titration	–	pH 7.4, 25 °C, first catalytic site	–	Kd	19 µM
CCCCn1ccnc1	Cytochrome P450 2E1 (Cyp2e1, Rattus norvegicus, UniProt P05182)	enzyme activity, inhibitor	liver microsomes	10 min, 37 °C, with: chlorzoxazone	–	Ki	0.63 µM
Clc1ccc(-c2cc(Cl)c(Cl)c(Cl)c2Cl)c(Cl)c1Cl	NR1I2	reporter gene, agonist, luciferase	COS-7	24 h	baseline: DMSO	fold induction	2.3 ± 0.3 fold
C#CCOc1ccccc1-c1ccccc1OCC#C	Cytochrome P450 2A13	binding, absorbance	–	pH 7.4	–	Kd	11 µM
CC(C)C[C@H](NC(=O)CNC(=O)[C@H](CC(C)C)NC(=O)[C@@H]1CCCN1C(=O)CNC(=O)[C@H](Cc1ccccc1)NC(=O)Cc1ccc2ccccc2c1)C(=O)N[C@@H](CCCNC(=N)N)C(=O)N[C@@H](CO)C(=O)N[C@@H](CCCCN)C(=O)O	Matrix metalloproteinase-9 (MMP9, Homo sapiens, UniProt P14780)	protease stability, substrate, HPLC	–	500 µM, pH 7.5, 37 °C, with: MMP9 10 U	–	time to complete digestion	12 h
Nc1ncnc2c1nc(SCCNC(=S)Nc1ccc(-c3c4ccc(=O)cc-4oc4cc(O)ccc34)c(C(=O)O)c1)n2[C@@H]1O[C@@H]2COP(=O)(O)O[C@H]2[C@H]1O	Solute carrier organic anion transporter family member 1B3 (SLCO1B3, Homo sapiens, UniProt Q9NPD5)	substrate	CHO cells	10 min	–	Km	1.8 µM
C1CO1	glutathione S-transferase, mouse	substrate	B6C3F1 mice, lung cytosol	–	–	Km	≥ 9000 µM
Brc1ccc(Oc2ccc(Br)cc2Br)cc1	PXR (polar bear)	reporter gene, agonist, luciferase	COS-7	24 h	baseline: DMSO	fold induction	0.9 ± 0.2 fold
C#CCOc1ccc2c(C(F)(F)F)cc(=O)oc2c1	human CYP3A4	enzyme inactivation, inactivator	reconstituted system	with: testosterone 6β-hydroxylation substrate	–	KI	17 µM
Clc1cc(Cl)c(-c2ccc(Cl)c(Cl)c2Cl)cc1Cl	NR1I2	reporter gene, agonist, luciferase	COS-7	24 h	baseline: DMSO	fold induction	1.1 ± 0.1 fold
CNC(=O)Oc1cc(C)c(SC)c(C)c1	CYP2C9	inhibitor	human liver microsomes	2 µM, pH 7.4, with: diclofenac	–	inhibition	< 0%
C#CCOc1ccc2ccccc2c1	Cytochrome P450 2A13	binding, absorbance	–	pH 7.4	–	Kd	0.42 µM

Molecule	target	test	system	conditions	scale	endpoint	result
CSc1nc2cc(Cl)c(Oc3cccc(Cl)c3Cl)cc2[nH]1	CYP2C9	inhibitor	human liver microsomes	10 µM, pH 7.4, with: diclofenac	–	inhibition	99.5%
CC(C)C=Cc1c(O)cc(/C=C/c2ccc(O)c(O)c2)cc1O	UGT1A7 human recombinant	substrate, item: 3-glucuronide	–	pH 7.4	–	Km	54.4 ± 4.5 µM
C#CCOCc1ccc(-c2ccccc2)cc1	CYP2A6	binding, absorbance	–	pH 7.4	–	Kd	43 µM
Clc1cc(Cl)c(-c2c(Cl)cc(Cl)c(Cl)c2Cl)cc1Cl	NR1I2	reporter gene, agonist, luciferase	COS-7	24 h	baseline: DMSO	fold induction	2.9 ± 0.5 fold
N.N.O=C([O-])C1(C(=O)[O-])CCC1.[Pt+2]	P-glycoprotein (Canis lupus familiaris, UniProt C0KKU9)	rhodamine efflux, inhibitor	MDCK-MDR1 cells	concentration not given, with: rhodamine 123 1 µM	baseline: rhodamine alone	rhodamine fluorescence ratio	1.1
CCC1(c2ccccc2)NC(=O)N(Cc2ccccc2)C1=O (single isomer, unassigned; (+))	CYP (human)	THC M2 formation, inhibitor	human liver microsomes	5 µM, with: THC 2 µM	–	inhibition	no inhibition
Oc1cc(O)cc(/C=C/c2ccc(O)c(O)c2)c1	UGT1A9 human recombinant	substrate, item: 3-glucuronide	–	pH 7.4	–	Km	32.8 ± 2.4 µM
C#CCOc1ccccc1-c1ccccc1	Cytochrome P450 2A13	binding, absorbance	–	pH 7.4	–	Kd	15.4 µM
Clc1ccc(-c2cc(Cl)c(Cl)c(Cl)c2)cc1Cl	AHR	binding, competitor	–	in vitro expressed receptor, with: [3H]TCDD	–	Ki	0.0016 µM
C#CCOCc1ccc2ccccc2c1	CYP2A6	binding, absorbance	–	pH 7.4	–	Kd	21 µM
COc1cc2c(c(OC)c1OC)-c1ccc(OC)c(=O)cc1[C@@H](NC(C)=O)CC2	ATP-dependent translocase ABCB1 (ABCB1, Homo sapiens, UniProt P08183)	ATPase activity, substrate	membranes	with: ATP 1 mM	–	Vmax	4 ± 0.2 nmol Pi/min/mg protein
CC(C)(c1cc(Br)c(O)c(Br)c1)c1cc(Br)c(O)c(Br)c1	PXR (polar bear)	reporter gene, agonist, luciferase	COS-7	24 h	baseline: DMSO	fold induction	3.8 ± 0.5 fold
c1c[nH]nn1	CYP2E1	spectral titration	–	pH 7.4, 25 °C, first catalytic site	–	Kd	330 µM
CC[C@H](C)[C@@H]1NC(=O)[C@H](CCC(=O)O)NC(=O)[C@@H]2CSSC[C@H](NC(=O)[C@H](Cc3ccc(O)cc3)NC(=O)[C@H](CO)NC(=O)[C@@H](NC(=O)[C@H](C)N)[C@@H](C)O)C(=O)N[C@@H](CCCNC(=N)N)C(=O)N[C@@H]([C@@H](C)O)C(=O)NCC(=O)N[C@@H](CCCNC(=N)N)C(=O)N[C@@H](CSSC[C@@H](C(=O)N[C@@H](CO)C(=O)N[C@@H](CCCNC(=N)N)C(=O)O)NC(=O)[C@H](CC(C)C)NC(=O)[C@H](CCCNC(=N)N)NC(=O)[C@H](Cc3ccc(O)cc3)NC(=O)[C@H](CC(C)C)NC(=O)[C@H](CCCNC(=N)N)NC(=O)CNC(=O)[C@H](CO)NC1=O)C(=O)N[C@@H](C)C(=O)N[C@@H]([C@@H](C)O)C(=O)N[C@@H](CCCNC(=N)N)C(=O)N[C@@H](CCC(=O)O)C(=O)N[C@@H](CO)C(=O)N[C@@H](CC(C)C)C(=O)N[C@@H](CO)C(=O)NCC(=O)N[C@@H](C(C)C)C(=O)N2	trypsin	proteolytic degradation, substrate	–	80 µM, pH 8.2, room temperature	–	time to full digestion	> 2 min
CC[N+]1=C(C=CC=CC=C2N(CCCCCC(=O)NCCN3C(=O)CC(SC[C@@H](NC(=O)[C@@H](CCCNC(=N)N)NC(=O)[C@@H](CCCNC(=N)N)NC(=O)[C@@H](CCCNC(=N)N)NC(=O)[C@@H](CCCNC(=N)N)NC(=O)[C@@H](CCCNC(=N)N)NC(=O)[C@@H](CCCNC(=N)N)NC(=O)[C@@H](CCCNC(=N)N)NC(=O)[C@@H](CCCNC(=N)N)NC(=O)[C@@H](CCCNC(=N)N)NC(=O)[C@H](CC(C)C)NC(=O)[C@H](CCCCN)NC(=O)[C@H](CC(C)C)NC(=O)[C@H](CCC(N)=O)NC(=O)[C@H](CC(C)C)NC(=O)[C@H](CCCNC(=N)N)NC(=O)CCCCCNC(=O)[C@@H](CCC(=O)O)NC(=O)[C@@H](CCC(=O)O)NC(=O)[C@@H](CCC(=O)O)NC(=O)[C@@H](CCC(=O)O)NC(=O)[C@@H](CCC(=O)O)NC(=O)[C@@H](CCC(=O)O)NC(=O)[C@@H](CCC(=O)O)NC(=O)[C@@H](CCC(=O)O)NC(=O)[C@H](N)CCC(=O)O)C(N)=O)C3=O)c3ccc(S(=O)(=O)O)cc3C2(C)C)C(C)(C)c2cc(S(=O)(=O)[O-])ccc21 (stereo partly shown)	Prostate-specific antigen (Homo sapiens, UniProt P07288)	substrate	–	5 µM	–	cleavage	< 3%
C=C(C)[C@@H]1CCC(C)=C[C@H]1c1c(O)cc(CCCCC)cc1O	Cytochrome P450 2C19 (CYP2C19, Homo sapiens, UniProt P33261)	cotinine to COX formation, inhibitor	microsomes of overexpressing HEK293 cells	10 µM, 30 min, pH 7.4, with: cotinine 1 mM	–	inhibition	30%
O=C(O)COc1ccc(C(=O)c2cccs2)c(Cl)c1Cl	CYP2C8 human	M2 formation from THC, inhibitor	human liver microsomes	50 µM, six individual donors, with: THC 2 µM	–	inhibition	no effect
Brc1ccc(Oc2ccc(Br)cc2Br)c(Br)c1	NR1I2	reporter gene, agonist, luciferase	COS-7	24 h	baseline: DMSO	fold induction	5.8 ± 0.6 fold
CC(C)c1nc(N(C)S(C)(=O)=O)nc(-c2ccc(F)cc2)c1/C=C/[C@@H](O)C[C@@H](O)CC(=O)O	OATP1B1/1B3	–	human, plasma	oral, 10 mg single dose, with: dabrafenib at dosing initiation	baseline: compound alone	AUC(0-inf) increase	22%
Clc1ccc(C(c2ccc(Cl)cc2)C(Cl)(Cl)Cl)cc1	NR1I2	reporter gene, agonist, luciferase	COS-7	24 h	baseline: DMSO	fold induction	5.2 ± 0.6 fold
CC1=C(CO)C2=C(C)C3(CC3)[C@@](C)(O)C(=O)C2=C1	Thioredoxin reductase 1, cytoplasmic, active site peptide (Txnrd1, Rattus norvegicus, UniProt O89049)	LC-MS of tryptic digest, item: active site peptide	–	concentration not given	baseline: untreated enzyme	peptide signal reduction	60%
Clc1ccc(-c2ccc(Cl)cc2Cl)c(Cl)c1	NR1I2	reporter gene, agonist, luciferase	COS-7	24 h	baseline: DMSO	fold induction	2.6 ± 0.1 fold
Clc1ccc(-c2ccc(Cl)c(Cl)c2Cl)c(Cl)c1Cl	AHR	binding, competitor	–	in vitro expressed receptor, with: [3H]TCDD	–	Ki	0.384 µM

For quick reference, copied from above:
Molecule	target	test	system	conditions	scale	endpoint	result
CC[C@H](C)[C@@H]1NC(=O)[C@H](CCC(=O)O)NC(=O)[C@@H]2CSSC[C@H](NC(=O)[C@H](Cc3ccc(O)cc3)NC(=O)[C@H](CO)NC(=O)[C@@H](NC(=O)[C@H](C)N)[C@@H](C)O)C(=O)N[C@@H](CCCNC(=N)N)C(=O)N[C@@H]([C@@H](C)O)C(=O)NCC(=O)N[C@@H](CCCNC(=N)N)C(=O)N[C@@H](CSSC[C@@H](C(=O)N[C@@H](CO)C(=O)N[C@@H](CCCNC(=N)N)C(=O)O)NC(=O)[C@H](CC(C)C)NC(=O)[C@H](CCCNC(=N)N)NC(=O)[C@H](Cc3ccc(O)cc3)NC(=O)[C@H](CC(C)C)NC(=O)[C@H](CCCNC(=N)N)NC(=O)CNC(=O)[C@H](CO)NC1=O)C(=O)N[C@@H](C)C(=O)N[C@@H]([C@@H](C)O)C(=O)N[C@@H](CCCNC(=N)N)C(=O)N[C@@H](CCC(=O)O)C(=O)N[C@@H](CO)C(=O)N[C@@H](CC(C)C)C(=O)N[C@@H](CO)C(=O)NCC(=O)N[C@@H](C(C)C)C(=O)N2	trypsin	proteolytic degradation, substrate	–	80 µM, pH 8.2, room temperature	–	time to full digestion	> 2 min
CC[N+]1=C(C=CC=CC=C2N(CCCCCC(=O)NCCN3C(=O)CC(SC[C@@H](NC(=O)[C@@H](CCCNC(=N)N)NC(=O)[C@@H](CCCNC(=N)N)NC(=O)[C@@H](CCCNC(=N)N)NC(=O)[C@@H](CCCNC(=N)N)NC(=O)[C@@H](CCCNC(=N)N)NC(=O)[C@@H](CCCNC(=N)N)NC(=O)[C@@H](CCCNC(=N)N)NC(=O)[C@@H](CCCNC(=N)N)NC(=O)[C@@H](CCCNC(=N)N)NC(=O)[C@H](CC(C)C)NC(=O)[C@H](CCCCN)NC(=O)[C@H](CC(C)C)NC(=O)[C@H](CCC(N)=O)NC(=O)[C@H](CC(C)C)NC(=O)[C@H](CCCNC(=N)N)NC(=O)CCCCCNC(=O)[C@@H](CCC(=O)O)NC(=O)[C@@H](CCC(=O)O)NC(=O)[C@@H](CCC(=O)O)NC(=O)[C@@H](CCC(=O)O)NC(=O)[C@@H](CCC(=O)O)NC(=O)[C@@H](CCC(=O)O)NC(=O)[C@@H](CCC(=O)O)NC(=O)[C@@H](CCC(=O)O)NC(=O)[C@H](N)CCC(=O)O)C(N)=O)C3=O)c3ccc(S(=O)(=O)O)cc3C2(C)C)C(C)(C)c2cc(S(=O)(=O)[O-])ccc21 (stereo partly shown)	Prostate-specific antigen (Homo sapiens, UniProt P07288)	substrate	–	5 µM	–	cleavage	< 3%
C#CCOCc1ccc(-c2ccccc2)cc1	CYP2A6	binding, absorbance	–	pH 7.4	–	Kd	43 µM
